Assay results of several laboratories.
Every numbered part comes from another study and shows a few of its results, in no order. Positions count from the first letter of the parent shown.

Study 1
Target: Interferon regulatory factor 3, full length, phosphomimetic (IRF3, Homo sapiens, UniProt Q14653, residues 1-427, S386D/S396D/S398D/S402D/T404D/S405D)
Technique: protein-binding microarray
Form: double-stranded DNA, one strand shown
Matrix: in vitro
Concentration: 2540 nM top
Notes: 60-bp whole probe
Together with: salmon DNA 0.4 mg/ml
Baseline: random background probes
Reading: higher = stronger binding
All sequences stand within: GCCTAGCAC … GTCTTGATTCGCTTGACGCTGCTG
Target sequence (chain): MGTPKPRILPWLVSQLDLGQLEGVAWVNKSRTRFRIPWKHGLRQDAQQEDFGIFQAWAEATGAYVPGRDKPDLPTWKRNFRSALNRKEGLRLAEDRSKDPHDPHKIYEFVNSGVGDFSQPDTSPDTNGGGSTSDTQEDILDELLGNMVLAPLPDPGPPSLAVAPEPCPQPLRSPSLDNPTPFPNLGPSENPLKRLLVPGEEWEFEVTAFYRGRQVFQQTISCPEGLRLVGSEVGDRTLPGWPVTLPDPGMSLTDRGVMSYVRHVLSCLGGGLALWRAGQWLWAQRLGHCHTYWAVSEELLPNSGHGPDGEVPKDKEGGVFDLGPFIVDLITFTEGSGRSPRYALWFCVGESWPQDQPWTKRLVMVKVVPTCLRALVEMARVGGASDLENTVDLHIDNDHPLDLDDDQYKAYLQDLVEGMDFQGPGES
Strand	fitted relative affinity [z-score]
TTAGGTTTCCTTCTCTTTTAGTGCTAG	9.78
TTAGACATCAGTATCGATTAGTGCTAG	0.691
GCTTCCTCACCTGATGCCTCGTGCTAG	0.5
GACGATTTGAGTATCGAGACGTGCTAG	0.507
TTAGGTATCGGGTATCAGTTAGTGCTA	1.71
TTCGGACTGCTTTTCCTTTAGTGCTAG	0.83
TTAGAACTGGGGATTGGATTAGTGCTA	-0.698
GAACATTTCCTTTACATTCCGTGCTAG	2.84
TCACTTCCCAATTGTCTTACTGTGCTA	2.66
TTAGAACTGAGACTGGATCAGTGCTAG	-0.185
TTAGGACTGGACTATCGGTCAGTGCTA	-0.555
TTAGGTTTCGGGATTGGGTTAGTGCTA	4.41
TTGGATCTCAGTCTCGATTAGTGCTAG	0.173

Study 2
Target: CCNA1, cyclin fold, Cln2 fusion (human)
Technique: yeast growth competition, sequencing
Matrix: yeast
Notes: weak parent motif
Baseline: not given
Reading: higher = stronger binding
Parent: CUX1 docking peptide (human); SRIRRELFIEEIQ; partner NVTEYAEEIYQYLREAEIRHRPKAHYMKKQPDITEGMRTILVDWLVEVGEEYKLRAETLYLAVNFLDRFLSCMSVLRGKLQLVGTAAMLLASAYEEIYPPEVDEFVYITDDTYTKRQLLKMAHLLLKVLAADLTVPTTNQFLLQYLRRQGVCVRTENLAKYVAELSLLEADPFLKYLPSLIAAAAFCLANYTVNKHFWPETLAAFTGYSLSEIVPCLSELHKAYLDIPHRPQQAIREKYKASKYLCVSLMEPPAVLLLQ
Change	normalised enrichment score
SRIARELFIEEIQ [R4A]	0.416
SRIRRALFIEEIQ [E6A]	0.573
SRIRRELAIEEIQ [F8A]	0.346
SRIRRELFIEEIA [Q13A]	0.609
SRIRREAFIEEIQ [L7A]	0.399
SRIRAELFIEEIQ [R5A]	0.696
SRIRRELLIEEIQ [F8L]	0.395

Study 3
Target: Max-binding protein MNT, bHLH-zipper, MAX partner unstated (MNT, Homo sapiens, UniProt Q99583, residues 220-300)
Technique: protein-binding microarray
Form: double-stranded DNA, one strand shown
Matrix: in vitro
Concentration: not given
Notes: k-mer, scored over probes, only values ≥0.25
Reading: higher = stronger binding
Residues (chain): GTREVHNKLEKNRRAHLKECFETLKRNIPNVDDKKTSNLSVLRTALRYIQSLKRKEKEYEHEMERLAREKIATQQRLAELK
Strand	E-score
AATCATGT	0.325
ACGTGCAG	0.45
CGTGGCGA	0.307
ATCCACAT	0.363
CAGCACGC	0.391
CATGCGCC	0.428
ACACGAGA	0.374
AACAGGTG	0.317
CACGTGCA	0.497
CGGCACGA	0.364
ACATGGTA	0.403
CAATGTGC	0.334
CGTGACGC	0.288

Study 4
Molecule: PhoQ, residues 284 288 289 292 302 303 ASTSDA
Technique: Sort-seq
Item: YFP reporter
Matrix: E. coli
Notes: PhoQ-PhoP variant library
Together with: 10 µM Mg2+
Baseline: high Mg2+ state
Reading: higher = stronger signaling
target	fold induction
PhoP, residues 12 14 15 18 19 TQALL (Escherichia coli, UniProt P23836)	2.54
PhoP, residues 12 14 15 18 19 NYFRM (Escherichia coli, UniProt P23836)	10.6
PhoP, residues 12 14 15 18 19 QYFSL (Escherichia coli, UniProt P23836)	16.9

For quick reference, copied from above (study 3):
Strand	E-score
CGGCACGA	0.364
ACATGGTA	0.403
CAATGTGC	0.334
CGTGACGC	0.288
